Measured values of several laboratories.
Parts stem from different laboratories: compare values within a part only. Changes are numbered by the printed parent chain.

Sample 1 — technique: universal PBM; form: double-stranded DNA, one strand shown; medium: in vitro; tested at: 600 nM; reading: higher = stronger binding
Target: Sal-like protein 4, full length isoform A (SALL4, Homo sapiens, UniProt Q9UJQ4, residues 1-1053)
UniProt Q9UJQ4, sequence (whole entry, looked up): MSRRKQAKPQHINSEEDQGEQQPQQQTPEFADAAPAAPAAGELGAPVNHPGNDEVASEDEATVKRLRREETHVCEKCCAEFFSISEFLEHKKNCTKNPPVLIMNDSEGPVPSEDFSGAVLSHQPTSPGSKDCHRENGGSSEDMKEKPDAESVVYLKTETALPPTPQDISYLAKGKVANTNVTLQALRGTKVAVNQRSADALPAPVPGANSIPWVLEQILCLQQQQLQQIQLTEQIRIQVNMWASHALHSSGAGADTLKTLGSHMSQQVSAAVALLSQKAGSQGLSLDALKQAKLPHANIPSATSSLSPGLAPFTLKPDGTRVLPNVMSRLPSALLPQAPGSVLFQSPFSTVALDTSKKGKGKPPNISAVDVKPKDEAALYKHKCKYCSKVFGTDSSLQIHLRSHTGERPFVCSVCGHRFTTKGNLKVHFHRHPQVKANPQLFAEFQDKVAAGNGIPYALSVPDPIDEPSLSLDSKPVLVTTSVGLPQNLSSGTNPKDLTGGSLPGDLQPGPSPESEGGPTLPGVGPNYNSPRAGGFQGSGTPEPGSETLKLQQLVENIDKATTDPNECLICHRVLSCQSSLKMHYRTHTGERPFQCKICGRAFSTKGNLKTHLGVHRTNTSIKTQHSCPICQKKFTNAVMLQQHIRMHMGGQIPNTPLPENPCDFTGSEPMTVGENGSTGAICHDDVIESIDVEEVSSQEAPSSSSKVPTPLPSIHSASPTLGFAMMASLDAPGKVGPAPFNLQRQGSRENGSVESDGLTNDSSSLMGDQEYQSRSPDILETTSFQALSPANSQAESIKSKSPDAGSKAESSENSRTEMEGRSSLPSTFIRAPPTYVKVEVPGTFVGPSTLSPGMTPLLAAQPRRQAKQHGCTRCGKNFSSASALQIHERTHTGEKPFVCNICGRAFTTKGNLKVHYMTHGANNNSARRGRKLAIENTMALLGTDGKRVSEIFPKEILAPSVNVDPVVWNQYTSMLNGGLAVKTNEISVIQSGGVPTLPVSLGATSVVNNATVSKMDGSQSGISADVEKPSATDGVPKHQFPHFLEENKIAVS
Setting: 8-mer, flanks averaged, mean of replicates
| Sequence | E-score |
| --- | --- |
| CCCCATTC | -0.179 |
| AAGGCTGA | -0.014 |
| GAATAGGA | 0.197 |
| AGCGCAGA | -0.268 |
| CGCCGGAA | -0.236 |
| CCTATTCA | 0.0994 |
| ACTGCCCA | -0.194 |
| ATCACAAT | 0.238 |

Sample 2 — technique: DHFR PCA, deep sequencing; medium: yeast; together with: (+)-ABA 0.0091 µM; baseline: wild-type fitted maximum; reading: higher = stronger binding
Target: ABI1, truncated, D143A, DHFR fusion (Arabidopsis thaliana)
Setting: methotrexate growth selection, single substitutions
Starting sequence: PYL1, truncated, DHFR fusion (Arabidopsis thaliana); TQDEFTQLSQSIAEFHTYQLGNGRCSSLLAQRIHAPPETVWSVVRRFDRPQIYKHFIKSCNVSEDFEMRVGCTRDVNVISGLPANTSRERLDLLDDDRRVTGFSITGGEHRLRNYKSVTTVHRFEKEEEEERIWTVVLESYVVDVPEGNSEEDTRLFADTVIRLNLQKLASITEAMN; partner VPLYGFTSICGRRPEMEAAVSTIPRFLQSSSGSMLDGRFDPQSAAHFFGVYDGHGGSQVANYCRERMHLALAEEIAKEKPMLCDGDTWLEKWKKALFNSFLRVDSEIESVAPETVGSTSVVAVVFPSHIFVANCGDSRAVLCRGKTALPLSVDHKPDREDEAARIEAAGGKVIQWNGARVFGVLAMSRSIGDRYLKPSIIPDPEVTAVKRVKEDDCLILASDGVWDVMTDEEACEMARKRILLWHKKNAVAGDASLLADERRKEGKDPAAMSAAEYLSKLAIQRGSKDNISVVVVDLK
| Substitution | relative binding score [%] |
| --- | --- |
| Q19M | 4.8 |
| S87Y | 53.2 |
| I133Q | 61.9 |
| D65T | 3.49 |
| K54R | 20.9 |
| L82Q | 10.9 |
| N149S | 58.2 |
| D97P | -1.15 |

Sample 3 — technique: RNA Bind-n-Seq; form: RNA; medium: in vitro; tested at: not given; baseline: input RNA pool; reading: higher = stronger binding
Target: RING finger protein unkempt homolog, zinc fingers 1-6, GST-SBP tag (UNK, Homo sapiens, UniProt Q9C0B0, residues 30-357)
UniProt Q9C0B0, sequence (30-357, looked up): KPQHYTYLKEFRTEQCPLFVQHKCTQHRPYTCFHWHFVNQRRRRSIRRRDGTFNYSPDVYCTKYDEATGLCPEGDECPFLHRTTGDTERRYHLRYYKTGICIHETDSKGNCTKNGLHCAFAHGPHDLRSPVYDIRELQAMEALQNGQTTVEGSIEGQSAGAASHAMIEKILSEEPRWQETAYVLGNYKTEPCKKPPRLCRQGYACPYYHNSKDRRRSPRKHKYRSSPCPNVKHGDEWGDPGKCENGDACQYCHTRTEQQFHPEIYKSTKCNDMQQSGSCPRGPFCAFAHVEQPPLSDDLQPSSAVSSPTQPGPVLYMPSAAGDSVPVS
Setting: RNA with constant flanks, human and mouse sites, ends assumed
Shared flanks, not repeated: GGGAGUUCUACAGUCCGACGAUC … CAACAGAGGAUUGAGCAUCA
| Sequence | bound/input enrichment |
| --- | --- |
| AGACCUUUGGGGACAACUAAAGCUGCGGGAUACAAAGUCAGCCCAGGCAGACCUCCAGGUAGCAUUAAAGCUCUAUCCCGUCUUGCCGAUCUUGGUUAUGGCUGUGGCACUGCUGCUUUU | 0.0954 ratio |
| AGAUUGAUUUUCUUAGACUCCAUUAAGUCCAAAUCCAAAGACUCUGUGUGGGAAAAAGAAAUAGAAAUACUUAUAGAGGAAAAUGAGGACCUCAAACAACAAUGUAUUCAGCUAAAUGAA | 0.482 ratio |
| GACAGUGGAGAAGAGGUGGACUUGGUUAAGGAAGCGGACGUCCCCUCAGCCAUUAGUCUCCUUAGGUUUUUCCUGCAGGAGCUCCCUGAGCCCGUCAUACCUGGCAGCUUGCAUAUUCAC | 0.247 ratio |
| UGUGAUGAAUGUGGGAAGGCUUUCAGGAACAGCUCAGGCCUCAUAGUGCAUAAAAGGAUCCACACAGGAGAGAAACCUUACAAGUGUGAUGUCUGUGGCAAAGCAUUCAGCUAUAGCUCA | 0.147 ratio |
| UGUAUGGUAACUAAAGGUGCCAGCAUGUUGACUUUAUUACAAUUUGUAUUACUUCCUCUGUAGUUCCUAAUGGACUCAAUCACAGACUCUGGAUAUUUGCACUUAUGUACUUGAUACUGA | 0.345 ratio |
| UCAAAACGAGCAAAAUUUGUUGGACCUGGUGGCUAUAACUUAAAAAAACUUCAGGCUGAAACAGGUGUAACUAUUAGUCAGGUGGAUGAAGAAACGUUUUCUGUAUUUGCACCAACACCC | 0.191 ratio |
| GAAACAUUUAAAUUUAAAGAAGCUGUUGUUCUAGGAAGUACGGACUUUCUAGAAGAUGAUAUAGAGAAAAUUGUAGAAGAACUGGGGAAAGAGUAUAAGGGCAACGCCUACCAUCUGAUG | 1.58 ratio |
| GCCGGGUCCUGAGUUGGAAGAGAAGGCGCUGGUGCUGAAGCAGCUUGGGGAGACGCUGACGGAGCUCAAGGCUCAUUUCCCAGGCCUGCAGAGUAAGAUGCGGGUGGUGCUGCGCGUGGA | 0.272 ratio |

Single results of other studies — starting sequence: viral docking peptide; KGVKRKLFAEDSS
| Substitution | target | test | system | conditions | scale | measurement | value |
| --- | --- | --- | --- | --- | --- | --- | --- |
| K6C | CCND2, cyclin fold, Cln2 fusion (human) | yeast growth competition, sequencing | yeast | weak parent motif | baseline: not given, higher = stronger binding | normalised enrichment score | -0.107 |

Some of these lines once more (sample 1):
| Sequence | E-score |
| --- | --- |
| CCTATTCA | 0.0994 |
